Published values gathered from unrelated publications.
Protocols differ between the studies behind these lines. Numbers after ± are the reported error.
Technique: steady-state kinetics
B1: enzyme (Arabidopsis thaliana, UniProt Q944I4); chain SSYLSSKLSPIRTHSSFAACGCSWIQDNSMVHDYATTTNGTSKRCSALPTTNTVDVSSVSDLFEFICSGPLVNKIGITPQRVGQSIDKWLLYGSQLCRLFQLNELKLTIPQKARLYHYYIPVFIWCEDQIALHNSKFKDGDDVPPLVIGFSAPQGCGKTTLVFALDYLFKTTKKKSATISVDDFYLTAEGQAELRKKNPGNALLEYRGNAGSHDLKLSVETLEALSKLTKEGLKMKVPRYNKSAYSGRGDRADSSTWPEVEGPLSVILFEGWMLGFKPLPADVVKAVDPQLEVVNKNLEAYYDAWDKYIDAWVVIKIQDPSYVYRWRLQAEIAMRQDGQAGMSDEEVNDFVSRYLPAYKAYLPTLYAEGPSGSDPDRVLAIDIDEERNPILAN
B2: enzyme F197V/V84L (Vanderwaltozyma polyspora, UniProt A7TM80); chain MSVLISGASGYIAKHIVRVLLEQNYKVIGTVRSQDKADKLLKQYNNPNLSYEIVPEIANLDAFDDIFKKHGKEIKYVIHAASPLNFGAKDLEKDLVIPAINGTKNMFEAIKKYAPDTVERVVMTASYASIMTPHRQNDPTLTLDEETWNPVTEENAYENVFTAYCASKTFAEKEAWKFVKENSDAVKFKLTTIHPSVVFGPQNFDEDVTKKLNETCEIINGLLHAPFDTKVEKTHFSQFIDVRDVAKTHVLGFQKDELINQRLLLCNGAFSQQDIVNVFNEDFPELKGQFPPEDKDTDLNKGVTGCKIDNEKTKKLLAFEFTPFHKTIHDTVYQILHKEGRV
B3: spt (Sphingomonas paucimobilis, UniProt Q93UV0); chain TEAAAQPHALPADAPDIAPERDLLSKFDGLIAERQKLLDSGVTDPFAIVMEQVKSPTEAVIRGKDTILLGTYNYMGMTFDPDVIAAGKEALEKFGSGTNGSRMLNGTFHDHMEVEQALRDFYGTTGAIVFSTGYMANLGIISTLAGKGEYVILDADSHASIYDGCQQGNAEIVRFRHNSVEDLDKRLGRLPKEPAKLVVLEGVYSMLGDIAPLKEMVAVAKKHGAMVLVDEAHSMGFFGPNGRGVYEAQGLEGQIDFVVGTFSKSVGTVGGFVVSNHPKFEAVRLACRPYIFTASLPPSVVATATTSIRKLMTAHEKRERLWSNARALHGGLKAMGFRLGTETCDSAIVAVMLEDQEQAAMMWQALLDGGLYVNMARPPATPAGTFLLRCSICAEHTPAQIQTVLGMFQAAGRAVGVIG
B4: enzyme (Sargassum horneri, UniProt A0A097IUG6); chain SPMAVASPSGFQKAMKTTLSSLGIDKATGITKPTTIYRNLPYPEVFKHEEQNKEGEVTKNGTFCVSTGQFTGRSPKDKYFVKQAPSDGKLDWGKINKGVASEVYKNIYDKAVKHYNTNVDKMYVFDGYCGTSPKSRKNVRIITELAWQHHFAKNMFIRPETEEEVANFVPDFTIINACKIVNEDYKELGLNSEVAVVFNVEESKAVITGTWYGGEMKKGIFSMMNYWLPLDGVMSMHCSANKGKDGDTALFFGLSGTGKTTLSADPARYLIGDDEHGWDDDGIFNFEGGCYAKTVNLSRENEPEIYDAIKRDALLENVIIKKNGEPDYADVSRTENTRVSYPIYHIDNYEPSGMGDHPKSIVFLTCDAFGVLPPVSRLSPGQAMYHFLSGYTAKVAGTERGVTEPTPNFSAGFGAAFLTLHPTVYADLLQEKLDKHGTQCFLINTGWTGGGYGVGKRMSIKATRACVDAVLDGSINKTKFTKEPVFGFEVPQELPNVPSKVLNPREAWSDKASYDATRTKLGDMFKNNFTKFVKPGMTDYTAYGPK
B5: aspC A106G/A218G/F210I/I29V/I33V/I68L/I71L/N30D/N64T/S135A/T100S/V136I/V375I (Escherichia coli, UniProt P00509); chain MFENITAAPADPILGLADLFRADERPGKVDLGVGVYKDETGKTPVLTSVKKAEQYLLENETTKTYLGLDGLPEFGRCTQELLFGKGSALINDKRARTAQSPGGTGGLRVAADFLAKNTSVKRVWVSNPSWPNHKAIFNSAGLEVREYAYYDAENHTLDFDALINSLNEAQAGDVVLFHGCCHNPTGIDPTLEQWQTLAQLSVEKGWLPLIDFAYQGFGRGLEEDAEGLRAFAAMHKELIVASSYSKNFGLYNERVGACTLVAADSETVDRAFSQMKAAIRANYSNPPAHGASVVATILSNDALRAIWEQELTDMRQRIQRMRQLFVNTLQEKGANRDFSFIIKQNGMFSFSGLTKEQVLRLREEFGVYAVASGRINVAGMTPDNMAPLCEAIVAVL
B6: enzyme (Populus trichocarpa, UniProt A0A2K1ZZ60); chain ITRQYTFNITHKNFTRLCHTRSLVTVNGQFPGPRLVAREGDQVLVKVVNHVAENITIHWHGVRQLTSGWADGPAYVTQCPIQTGQAYTYNFTITGQRGTLLWHAHISWLRSSLYGPIIILPKLNESYPFKKPYKEIPILFGEWFNVDPEAVIAQALQTGAGPNVSDAYTINGLPGPLYNCSAKDTYKLKVKPGKTYLLRLINAALNDELFFSIANHTLTVVEADAVYVKPFEADTLLISPGQTTNVLLKTKPHLPNATFYMFAGPYFSGMGSFDNSTTAGVLVYKHPSSNNHLKKLPTLKPTLPPINATGFVANFTKKFRSLANAKFPANVPQTVDRKFFFTVGLGTNPCPKNTTCQGPNNNTKFAASINNVSFVLPSVALLQSYFFGQSNGVFTSDFPQNPTIPFNYTGTPPNNTMVSNGTKAVVLTFNTSVELVMQGTSIVAAESHPLHLHGFNFFVVGQGFGNYDPNKDPSNFNLVDPMERNTAGVPAGGWIAIRFLADNPGVWFMHCHLDVHTSWGLRMAWIVLDGPQPNQKIPPPPSDLPKC
B7: enzyme L71Q/Y136L (Bradyrhizobium diazoefficiens, UniProt Q45222); chain MIQTERAVQQVLEWGRSLTGFADEHAVEAVRGGQYILQRIHPSLRGTSARTGRDPQDETLIVTFYRELALQFWLDDCNDLGLISPEQLAAVEQALGQGVPCALPGFEGCAVLRASLATLAYDRRDYAQLLDDTRCLSAALRAGHAQAVAAERWSYAEYLHNGIDSIAYANVFCCLSLLWGLDMATLRARPAFRQVLRLISAIGRLQNDLHGCDKDRSAGEADNAVILLLQRYPAMPVVEFLNDELAGHTRMLHRVMAEERFPAPWGPLIEAMAAIRVQYYRTSTSRYRSDAVRGGQRAPA
B8: enzyme (UniProt A0A063Y6V3); chain MNTRVAIIGAGPCGLAQLRAFQSAAAKGAAIPELVCFEKQSDWGGMWNYTWRTGVDEHGEPVHGSMYRYLWSNGPKECLEFADYTFDEHFGRPIGSYPPREVLWDYIKGRVEKAGVRDYIRFNTAVRQVSYDETSGLFSVTVQDHSNNRVYTETFDYVVNACGHFSTPNTPYFEGFERFGGRVLHAHDFRDALEFKDKDILVVGSSYSAEDIGSQCYKYGARSITSCYRSAPMGYQWPQNWEEKPLLQRVDSDTAWFADGSHKRIDAIILCTGYQHHFPFLPDSLRLITENRLWPLKLYKGIFWEDNPKFLYLGMQDQWYSFNMFDAQAWYARDVILGRISLPGKAEMQAENQAWREREEKLQTAQEMFEFQGSYIQHLIDATDYPSFDIQAVNETFLAWKHDKYEDIMGYRNKCYRSLMTGTLATPHHTPWLDALDDSLEAYLQETPRLKSAV
B9: enzyme (Mus musculus, UniProt P60334); chain MERTELLKPRTLADLIRILHELFAGDEVNVEEVQAVLEAYESNPAEWALYAKFDQYRYTRNLVDQGNGKFNLMILCWGEGHGSSIHDHTDSHCFLKLLQGNLKETLFDWPDKKSNEMIKKSERTLRENQCAYINDSIGLHRVENVSHTEPAVSLHLYSPPFDTCHAFDQRTGHKNKVTMTFHSKFGIRTPFTTSGSLENN
B10: gdh (Bacillus subtilis, UniProt P12310); chain MYPDLKGKVVAITGAASGLGKAMAIRFGKEQAKVVINYYSNKQDPNEVKEEVIKAGGEAVVVQGDVTKEEDVKNIVQTAIKEFGTLDIMINNAGLENPVPSHEMPLKDWDKVIGTNLTGAFLGSREAIKYFVENDIKGNVINMSSVHEVIPWPLFVHYAASKGGIKLMTETLALEYAPKGIRVNNIGPGAINTPINAEKFADPKQKADVESMIPMGYIGEPEEIAAVAAWLASKEASYVTGITLFADGGMTQYPSFQAGRG
Chain of UniProt P00723 (whole entry, looked up): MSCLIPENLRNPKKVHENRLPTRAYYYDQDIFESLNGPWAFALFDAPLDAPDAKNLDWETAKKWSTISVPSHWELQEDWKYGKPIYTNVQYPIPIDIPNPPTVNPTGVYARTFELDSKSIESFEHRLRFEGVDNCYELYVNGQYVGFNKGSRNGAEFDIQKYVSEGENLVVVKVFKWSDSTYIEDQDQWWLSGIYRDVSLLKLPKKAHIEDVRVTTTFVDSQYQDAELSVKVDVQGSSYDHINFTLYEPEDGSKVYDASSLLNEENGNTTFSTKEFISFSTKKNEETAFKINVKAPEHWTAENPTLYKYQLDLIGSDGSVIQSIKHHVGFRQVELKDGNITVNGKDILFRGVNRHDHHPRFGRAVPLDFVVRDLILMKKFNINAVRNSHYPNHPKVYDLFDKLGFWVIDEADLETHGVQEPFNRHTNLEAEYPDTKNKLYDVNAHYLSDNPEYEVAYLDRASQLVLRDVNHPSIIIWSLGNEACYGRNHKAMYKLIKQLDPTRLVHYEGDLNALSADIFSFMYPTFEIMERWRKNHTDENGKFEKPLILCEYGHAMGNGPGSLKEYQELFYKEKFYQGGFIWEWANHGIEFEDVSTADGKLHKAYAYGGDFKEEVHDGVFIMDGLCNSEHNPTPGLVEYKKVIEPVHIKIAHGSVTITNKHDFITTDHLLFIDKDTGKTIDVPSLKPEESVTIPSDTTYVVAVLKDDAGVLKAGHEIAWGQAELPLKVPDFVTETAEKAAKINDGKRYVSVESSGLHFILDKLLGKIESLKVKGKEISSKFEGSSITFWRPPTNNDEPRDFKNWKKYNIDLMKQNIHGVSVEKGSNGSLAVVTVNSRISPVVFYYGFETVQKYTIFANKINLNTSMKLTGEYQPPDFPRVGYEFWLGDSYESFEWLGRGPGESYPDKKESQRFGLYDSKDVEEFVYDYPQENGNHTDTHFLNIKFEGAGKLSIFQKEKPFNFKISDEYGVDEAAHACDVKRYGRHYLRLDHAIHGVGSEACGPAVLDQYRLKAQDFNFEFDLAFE
Chain of UniProt Q9FMF5 (whole entry, looked up): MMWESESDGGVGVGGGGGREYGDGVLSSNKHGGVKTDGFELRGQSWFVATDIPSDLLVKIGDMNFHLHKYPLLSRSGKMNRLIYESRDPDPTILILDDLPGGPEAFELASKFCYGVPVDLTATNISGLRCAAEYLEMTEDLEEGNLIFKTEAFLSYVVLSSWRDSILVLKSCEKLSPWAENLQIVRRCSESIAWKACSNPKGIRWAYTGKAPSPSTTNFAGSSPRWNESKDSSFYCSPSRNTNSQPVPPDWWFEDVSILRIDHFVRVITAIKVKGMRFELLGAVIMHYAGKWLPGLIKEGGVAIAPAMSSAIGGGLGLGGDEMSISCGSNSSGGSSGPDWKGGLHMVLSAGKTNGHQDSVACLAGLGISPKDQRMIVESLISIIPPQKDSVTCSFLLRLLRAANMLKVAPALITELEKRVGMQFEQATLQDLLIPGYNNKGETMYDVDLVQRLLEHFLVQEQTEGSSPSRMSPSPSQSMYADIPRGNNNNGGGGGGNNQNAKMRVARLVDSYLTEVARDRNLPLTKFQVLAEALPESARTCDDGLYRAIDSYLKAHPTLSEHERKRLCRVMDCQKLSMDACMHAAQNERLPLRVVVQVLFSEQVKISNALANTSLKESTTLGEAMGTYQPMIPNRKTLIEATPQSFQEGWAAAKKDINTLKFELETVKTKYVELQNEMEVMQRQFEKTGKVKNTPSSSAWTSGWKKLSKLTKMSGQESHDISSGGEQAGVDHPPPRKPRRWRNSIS
Chain of UniProt P09546 (whole entry, looked up): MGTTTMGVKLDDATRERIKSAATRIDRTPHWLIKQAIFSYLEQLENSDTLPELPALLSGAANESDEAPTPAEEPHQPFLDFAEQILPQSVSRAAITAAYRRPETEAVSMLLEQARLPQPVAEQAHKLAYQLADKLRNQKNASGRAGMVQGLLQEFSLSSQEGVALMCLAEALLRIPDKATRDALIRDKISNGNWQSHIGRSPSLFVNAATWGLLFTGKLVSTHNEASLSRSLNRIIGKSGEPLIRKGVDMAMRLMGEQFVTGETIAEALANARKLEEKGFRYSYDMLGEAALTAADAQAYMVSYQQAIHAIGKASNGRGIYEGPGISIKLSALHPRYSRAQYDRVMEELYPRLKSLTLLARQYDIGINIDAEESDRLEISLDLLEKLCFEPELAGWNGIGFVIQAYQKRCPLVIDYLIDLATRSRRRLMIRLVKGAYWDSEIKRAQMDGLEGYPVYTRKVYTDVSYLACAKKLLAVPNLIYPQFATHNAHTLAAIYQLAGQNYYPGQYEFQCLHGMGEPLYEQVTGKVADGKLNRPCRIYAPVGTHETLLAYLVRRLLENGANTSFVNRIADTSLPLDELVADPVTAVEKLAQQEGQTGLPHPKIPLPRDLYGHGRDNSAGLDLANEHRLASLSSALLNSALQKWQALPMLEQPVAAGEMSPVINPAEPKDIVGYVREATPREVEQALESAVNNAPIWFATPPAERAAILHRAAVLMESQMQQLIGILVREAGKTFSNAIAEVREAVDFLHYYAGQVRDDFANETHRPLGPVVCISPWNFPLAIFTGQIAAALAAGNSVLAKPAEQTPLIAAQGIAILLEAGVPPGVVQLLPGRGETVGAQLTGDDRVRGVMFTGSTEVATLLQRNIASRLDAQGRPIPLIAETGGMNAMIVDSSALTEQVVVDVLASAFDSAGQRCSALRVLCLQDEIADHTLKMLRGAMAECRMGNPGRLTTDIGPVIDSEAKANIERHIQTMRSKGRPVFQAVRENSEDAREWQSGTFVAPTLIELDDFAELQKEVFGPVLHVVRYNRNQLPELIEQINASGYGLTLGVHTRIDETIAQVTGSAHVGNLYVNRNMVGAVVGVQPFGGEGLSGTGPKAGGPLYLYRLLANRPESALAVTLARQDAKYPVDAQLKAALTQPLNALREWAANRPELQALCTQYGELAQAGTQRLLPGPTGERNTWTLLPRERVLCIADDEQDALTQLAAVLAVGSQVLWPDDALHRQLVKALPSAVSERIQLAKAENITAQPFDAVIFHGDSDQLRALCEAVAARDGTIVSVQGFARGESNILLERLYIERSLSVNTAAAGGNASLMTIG

enzyme (UniProt F0RRL2) — kcat (O=P(O)(O)O; pH 5.5, 37 °C, apparent): 62.7 ± 3.2 s⁻¹
RPT3 (Arabidopsis thaliana, UniProt Q9FMF5) — kcat (Nc1nc2c(ncn2[C@@H]2O[C@H](COP(=O)(O)OP(=O)(O)OP(=O)(O)O)[C@@H](O)[C@H]2O)c(=O)[nH]1; pH 7.5, 30 °C): 0.056 s⁻¹
B1 (enzyme) — kcat (O=C(O)[C@H](O)CO; pH 7.8, 30 °C): 50 ± 1.06 s⁻¹
enzyme (Thermothielavioides terrestris, UniProt G2R650) — kcat (Oc1cc(O)cc(/C=C/c2ccc(O)c(O)c2)c1; pH 8, 45 °C): 0.772 ± 0.028 s⁻¹
B2 (enzyme F197V/V84L) — kcat (CCO; pH 8, 30 °C, with: NADP+): 0.095 s⁻¹
B3 (spt) — kcat (CCCCCCCCCCCC(=O)SCCNC(=O)CCNC(=O)[C@H](O)C(C)(C)COP(=O)(O)OP(=O)(O)OC[C@H]1O[C@@H](n2cnc3c(N)ncnc32)[C@H](O)[C@@H]1OP(=O)(O)O; with: PLP): 0.11 ± 0.01 s⁻¹
putA (Escherichia coli, UniProt P09546) — kcat (CC1=CC(=O)c2ccccc2C1=O; pH 7.4, 20 °C, with: proline 200 mM): 3.5 ± 0.1 s⁻¹
enzyme (Treponema denticola, UniProt Q73LY9) — kcat (CC(=O)N[C@H]1[C@H](Oc2ccc([N+](=O)[O-])cc2)O[C@H](CO)[C@@H](O)[C@@H]1O[C@@H]1O[C@H](CO)[C@H](O)[C@H](O)[C@H]1O; pH 6, 40 °C): 0.45 ± 0.03 s⁻¹
B4 (enzyme) — kcat (Nc1ncnc2c1ncn2[C@@H]1O[C@H](COP(=O)(O)OP(=O)(O)O)[C@@H](O)[C@H]1O; pH 6.5, 25 °C, with: 16 mM PEP): 39.5 ± 0.6 s⁻¹
B5 — kcat (N[C@@H](Cc1ccc(O)cc1)C(=O)O; pH 7.5, 25 °C, with: PLP 20 µM): 240 s⁻¹
B6 (enzyme) — kcat (COc1cc(/C=C/CO)cc(OC)c1O; 27 °C): 4.33 ± 0.53 s⁻¹
HNL E79H/H103V/K236M/N104A/T11G (Hevea brasiliensis) — kcat (CC(=O)Oc1ccc([N+](=O)[O-])cc1; pH 7.2, 22 °C): 0.0633 ± 0.00333 s⁻¹
B7 (enzyme L71Q/Y136L) — kcat (C=C1CC[C@@H]2C(C)(C)CCC[C@@]2(C)[C@@H]1CC/C(C)=C/COP(=O)(O)OP(=O)(O)O): 0.04 ± 0.00233 s⁻¹
enzyme (Bacteroides ovatus, UniProt A0AAN3A6N4) — kcat (O=[N+]([O-])c1ccc(O[C@H]2O[C@H](CO)[C@@H](O)[C@H](O)[C@H]2O)cc1; pH 6.6): 21.5 ± 1.2 s⁻¹
enzyme (Cryptosporidium parvum, UniProt Q8IS93) — kcat (O=C(O)c1cc(SSc2ccc([N+](=O)[O-])c(C(=O)O)c2)ccc1[N+](=O)[O-]; pH 7.4, with: NADPH 150 µM): 22.4 ± 0.428 s⁻¹
B8 (enzyme) — kcat (NC(=O)C1=CN([C@@H]2O[C@H](COP(=O)(O)OP(=O)(O)OC[C@H]3O[C@@H](n4cnc5c(N)ncnc54)[C@H](O)[C@@H]3O)[C@@H](O)[C@H]2O)C=CC1; pH 7, 30 °C, cofactor varied): 0.31 ± 0.021 s⁻¹
LAC4 (Kluyveromyces lactis, UniProt P00723) — kcat (O=[N+]([O-])c1ccccc1O[C@@H]1O[C@H](CO)[C@H](O)[C@H](O)[C@H]1O; pH 6.5, 30 °C): 488 ± 12.7 s⁻¹
B9 (enzyme) — kcat (N[C@@H](CS)C(=O)O; pH 7.5, 37 °C): 1.01 s⁻¹
B10 (gdh) — kcat (NC(=O)c1ccc[n+]([C@@H]2O[C@H](COP(=O)(O)OP(=O)(O)OC[C@H]3O[C@@H](n4cnc5c(N)ncnc54)[C@H](O)[C@@H]3O)[C@@H](O)[C@H]2O)c1; pH 8, 50 °C): 13 ± 0.495 s⁻¹

Some of these lines once more:
B4 (enzyme) — kcat (Nc1ncnc2c1ncn2[C@@H]1O[C@H](COP(=O)(O)OP(=O)(O)O)[C@@H](O)[C@H]1O; pH 6.5, 25 °C, with: 16 mM PEP): 39.5 ± 0.6 s⁻¹
